Assay results gathered from unrelated publications.
Protocols differ between the studies behind these lines. Several values in a cell are separate wells, animals, samples, runs or records.
Target: Serine/threonine-protein kinase PAK 1 (PAK1, Homo sapiens, UniProt Q13153)

`Cc1nc2c(F)cc(-c3nc(Nc4ccc(CNC(=O)CCCCCCC(=O)NO)cc4)ncc3F)cc2n1C(C)C` has an inhibition of 77% (enzyme activity, inhibitor; 1 µM).
With `C=CC(=O)N1Cc2nc(-c3cc(-c4cc(Cl)cnc4Cl)c(F)cc3F)n(-c3ccncn3)c2C1` the inhibition was 2.2% (cell-free assay, inhibitor; 1 µM).
With `Cc1cccc(O[C@H]2CCC[C@@H](C(C)CNCc3ccncc3)C2)c1` (relative stereo) the inhibition was -3% (enzyme activity, inhibitor; 10 µM).
The remaining activity of `COCC12C(=O)NC3C4(C(OC)CC1O)C1CC5(O)C(OC)C(O)C(OC(C)=O)(C1C5OC(=O)c1ccccc1)C3(O)C(OC)C24` (centres unmarked) is reported as 99% and 98% (kinase activity, inhibitor, ProQinase kinase profiling; 25 µM; relative to: control).
`C=CC(=O)N1CCc2ccc(-n3c(=O)ccc4cnc5ccc(-c6cnn(C)c6)cc5c43)cc21` has a remaining binding of 100% (KINOMEscan; 1 µM; relative to: DMSO control).
`C=CC(=O)Nc1cccc(-c2cnc3[nH]cc(C(=O)NC(C)(C)C)c3n2)c1` gave an inhibition of 5% (enzyme activity, inhibitor; 0.1 µM).
`CNS(=O)(=O)Nc1nccc(Cc2c(C)c3ccc(Oc4ncccc4F)cc3oc2=O)c1F` has a remaining binding of 95% (cell-free assay, competition with immobilised ligand; 10 µM).
`NC(=O)[C@@H](O)C[C@H]1CCc2sc3ncnc(O[C@H]4CC[C@H](N5CCOCC5)CC4)c3c21` has an inhibition of 8% (enzyme activity, inhibitor; 10 µM).
The remaining binding of `CC(=O)N1c2ccc(-c3ccc(CNC(=O)c4cn5cc(-c6cnc(N)nc6)nc(N6CCOCC6)c5n4)cc3)cc2CC[C@@H]1C` is reported as 100% (KINOMEscan; 10 µM).
`CN1CCN(Cc2ccc(NC(=O)c3cccc(C#Cc4cnc(N)c5ncccc45)c3)cc2C(F)(F)F)CC1` gave a remaining binding of 84% (cell-free assay, competition with immobilised ligand; 50 nM).
With `CNC(=O)C1CCN(c2cc(C)c(F)cc2NC(=O)c2ccc(-c3cc(O)ccc3C)c(C)c2)CC1` the remaining binding was 47% (binding, competition with immobilised ligand; 1 µM).
For `COc1ccc(C(=O)/C=C/c2ccccc2-c2c[nH]c3ccc(C#N)cc23)c(O)c1`, the inhibition was -7% (enzyme activity, inhibitor; 20 µM).
`CNC1C[S+]2CC[S+]3CC[S+](C1)[Ru-4]321([N]=C=S)[n]2c3ccc(OC)cc3c3c4c(c5cc(F)c[n+]1c5c32)C(=O)NC4=O` (centres unmarked) has a remaining binding of 100% (KinomeScan; 0.1 µM; relative to: untreated).
`Cc1cnc2nc1Nc1cccc(c1)COC/C=C/COCc1cc(ccc1OCCN1CCOCC1)N2` gave a remaining binding of 100% (binding; 0.1 µM).
For `CN1CC[C@@H](COc2cnc(C#N)cc2-c2ccn3nc(NC(=O)C4CC4)cc3c2)C1`, the inhibition was 3% (enzyme activity, inhibitor; 1 µM).
`CCN1CCN(Cc2ccc(C(=O)Nc3ccc(C)c(NCc4cnc5[nH]ccc5c4OC)c3)cc2C(F)(F)F)CC1` gave a remaining binding of 92% (binding, competition with immobilised ligand; 1 µM).
The remaining binding of `COc1cc(Nc2nccc(-c3cnn4nc(OC)ccc34)n2)cc(C(F)(F)F)c1` is reported as 99% (binding, competition with immobilised ligand; 1 µM).

For quick reference, copied from above:
With `C=CC(=O)N1Cc2nc(-c3cc(-c4cc(Cl)cnc4Cl)c(F)cc3F)n(-c3ccncn3)c2C1` the inhibition was 2.2% (cell-free assay, inhibitor; 1 µM).
`CNC1C[S+]2CC[S+]3CC[S+](C1)[Ru-4]321([N]=C=S)[n]2c3ccc(OC)cc3c3c4c(c5cc(F)c[n+]1c5c32)C(=O)NC4=O` (centres unmarked) has a remaining binding of 100% (KinomeScan; 0.1 µM; relative to: untreated).
